Results pooled from the literature.
Compare with care: the assays were run in different laboratories.
Target: D(2) dopamine receptor (DRD2, Homo sapiens, UniProt P14416)
Chain of UniProt P14416 (whole entry, looked up): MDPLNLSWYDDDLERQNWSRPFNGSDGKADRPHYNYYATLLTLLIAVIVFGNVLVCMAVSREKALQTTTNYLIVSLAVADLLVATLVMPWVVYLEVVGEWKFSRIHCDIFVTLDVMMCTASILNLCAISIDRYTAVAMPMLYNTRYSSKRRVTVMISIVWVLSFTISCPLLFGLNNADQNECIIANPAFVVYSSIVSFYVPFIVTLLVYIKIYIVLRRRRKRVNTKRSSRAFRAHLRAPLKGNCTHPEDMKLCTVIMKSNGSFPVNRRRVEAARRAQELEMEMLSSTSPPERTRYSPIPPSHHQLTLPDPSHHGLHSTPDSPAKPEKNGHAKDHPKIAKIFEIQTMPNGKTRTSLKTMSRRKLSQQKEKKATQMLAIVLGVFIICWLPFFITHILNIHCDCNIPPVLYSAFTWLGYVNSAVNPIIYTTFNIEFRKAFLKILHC

O=C1c2sc(-c3ccc(N4CCC(F)C4)nc3F)nc2CCN1c1cccnc1 (stereo not drawn) — inhibition (ligand displacement, radioligand; 1 µM): -8%
COc1ccc(C(=O)Nc2c(-c3cccs3)nc3ccccn23)cc1 — inhibition (ligand displacement, radioligand; 10 µM): < 50%
CC1Cc2ccccc2N1C(=O)CN1CCN(c2ccccc2)CC1 (stereo not drawn) — inhibition (ligand displacement, radioligand; 10 µM): 2%
CC(C)Cn1c(SCC(=O)N2CCc3ccccc3C2)nc2cc(Cl)ccc2c1=O — inhibition (ligand displacement, radioligand; 10 µM): -5%
CCC(=O)N(C)c1ccc(Cl)c(Cl)c1 — inhibition (ligand displacement, radioligand; 10 µM): < 10%
CCn1c2ccccc2c2cc(CNCCCn3ccnc3)ccc21 — inhibition (enzyme activity, inhibitor; 10 µM): 34%
CO[C@@H](C)c1c(NC(=O)Nc2cnc(-n3nccn3)c(C(F)(F)F)c2)cnc2sc(C)nc12 — inhibition (ligand displacement, radioligand; 10 µM): 0.5%
O=C(CN1CCO[C@@H](COc2cccc(Cl)c2)C1)N1CCc2ccccc21 — inhibition (ligand displacement, radioligand; 10 µM): 23.7%
NS(=O)(=O)c1ccc(CCNCc2ccc(-c3ccc(Br)cc3)o2)cc1 — inhibition (enzyme activity, inhibitor; 10 µM): 29.5%
Cc1ccnc(OC[C@H]2CN(CCN3CCc4ccccc43)CCO2)c1 — inhibition (ligand displacement, radioligand; 10 µM): 0.3%
NS(=O)(=O)c1ccc(CCNCc2ccc(-c3ccccc3F)o2)cc1 — inhibition (enzyme activity, inhibitor; 10 µM): 22.5%
C[Si](C)(C)C[C@H](CN)CC(=O)O — inhibition (binding, radioligand binding; 250 µM, together with: [3H]spiperone): 3%
COc1ccc(C#CC2=C[C@H]3C[C@@]4(OC(=O)C=C24)[C@H]2CC[C@H](C(OC)OC)N32)cc1 — inhibition (radioligand binding, radioligand displacement; 10 µM): 16%
C[Si]1(C[C@H](CN)CC(=O)O)CCCC1 — inhibition (binding, radioligand binding; 70 µM, together with: [3H]spiperone): 3%
COc1cc(C(C)=O)ccc1OCC(O)CN1CCN(c2cccc(Cl)c2)CC1 (stereo not drawn) — inhibition (enzyme activity, inhibitor; 10 µM): 10.2%

Repeated from above:
C[Si](C)(C)C[C@H](CN)CC(=O)O — inhibition (binding, radioligand binding; 250 µM, together with: [3H]spiperone): 3%
COc1ccc(C#CC2=C[C@H]3C[C@@]4(OC(=O)C=C24)[C@H]2CC[C@H](C(OC)OC)N32)cc1 — inhibition (radioligand binding, radioligand displacement; 10 µM): 16%
